Results of several laboratories.
Lines come from different studies, so protocols differ. ± gives the spread as reported.
KLRK1 with ULBP6: NKG2-D type II integral membrane protein, with ULBP6 (KLRK1, Homo sapiens, UniProt P26718)
Sequence of UniProt P26718 (whole entry, looked up): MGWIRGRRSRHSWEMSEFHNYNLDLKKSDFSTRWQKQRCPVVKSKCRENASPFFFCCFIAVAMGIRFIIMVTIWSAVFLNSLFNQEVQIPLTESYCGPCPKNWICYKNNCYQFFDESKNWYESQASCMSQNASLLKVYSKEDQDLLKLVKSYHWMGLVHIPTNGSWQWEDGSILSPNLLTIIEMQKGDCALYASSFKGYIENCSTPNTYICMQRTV
Sequence of UniProt P53350 (whole entry, looked up): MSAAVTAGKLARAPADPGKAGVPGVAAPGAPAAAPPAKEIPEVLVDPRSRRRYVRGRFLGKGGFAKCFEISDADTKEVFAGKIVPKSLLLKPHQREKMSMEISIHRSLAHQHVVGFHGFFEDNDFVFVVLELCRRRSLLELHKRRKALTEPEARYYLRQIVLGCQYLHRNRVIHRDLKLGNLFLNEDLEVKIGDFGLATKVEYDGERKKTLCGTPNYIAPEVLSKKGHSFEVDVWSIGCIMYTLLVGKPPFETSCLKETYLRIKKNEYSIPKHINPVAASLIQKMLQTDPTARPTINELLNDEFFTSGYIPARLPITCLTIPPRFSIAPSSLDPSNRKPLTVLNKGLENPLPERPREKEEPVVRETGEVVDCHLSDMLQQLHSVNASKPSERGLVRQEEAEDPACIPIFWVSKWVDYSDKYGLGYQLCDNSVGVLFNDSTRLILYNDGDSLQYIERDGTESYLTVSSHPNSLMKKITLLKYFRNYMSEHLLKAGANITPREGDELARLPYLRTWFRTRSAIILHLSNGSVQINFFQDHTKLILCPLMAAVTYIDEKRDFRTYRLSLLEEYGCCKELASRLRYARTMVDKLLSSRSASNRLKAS
Sequence of UniProt P61073 (whole entry, looked up): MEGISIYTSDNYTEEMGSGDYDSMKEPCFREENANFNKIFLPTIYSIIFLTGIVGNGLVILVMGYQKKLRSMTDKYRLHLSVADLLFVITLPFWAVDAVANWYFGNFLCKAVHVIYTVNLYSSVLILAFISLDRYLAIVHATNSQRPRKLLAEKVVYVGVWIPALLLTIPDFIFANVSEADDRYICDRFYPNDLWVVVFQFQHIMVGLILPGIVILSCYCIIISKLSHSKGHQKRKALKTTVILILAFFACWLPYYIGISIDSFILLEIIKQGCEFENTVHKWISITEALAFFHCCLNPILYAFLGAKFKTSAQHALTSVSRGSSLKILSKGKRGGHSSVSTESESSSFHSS
Sequence of UniProt P33261 (whole entry, looked up): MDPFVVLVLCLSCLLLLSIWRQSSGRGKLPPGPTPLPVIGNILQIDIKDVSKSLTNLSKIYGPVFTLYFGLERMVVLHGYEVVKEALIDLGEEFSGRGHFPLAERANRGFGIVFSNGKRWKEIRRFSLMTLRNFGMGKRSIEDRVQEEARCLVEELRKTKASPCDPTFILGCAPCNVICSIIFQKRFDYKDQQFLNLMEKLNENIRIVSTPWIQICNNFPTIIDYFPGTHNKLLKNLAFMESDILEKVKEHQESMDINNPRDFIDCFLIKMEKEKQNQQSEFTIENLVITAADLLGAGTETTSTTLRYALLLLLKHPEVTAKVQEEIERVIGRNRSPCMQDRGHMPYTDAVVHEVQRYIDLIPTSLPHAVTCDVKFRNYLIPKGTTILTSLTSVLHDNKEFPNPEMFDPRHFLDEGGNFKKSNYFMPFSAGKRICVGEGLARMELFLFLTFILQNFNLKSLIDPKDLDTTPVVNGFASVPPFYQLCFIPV
Sequence of UniProt P50391 (whole entry, looked up): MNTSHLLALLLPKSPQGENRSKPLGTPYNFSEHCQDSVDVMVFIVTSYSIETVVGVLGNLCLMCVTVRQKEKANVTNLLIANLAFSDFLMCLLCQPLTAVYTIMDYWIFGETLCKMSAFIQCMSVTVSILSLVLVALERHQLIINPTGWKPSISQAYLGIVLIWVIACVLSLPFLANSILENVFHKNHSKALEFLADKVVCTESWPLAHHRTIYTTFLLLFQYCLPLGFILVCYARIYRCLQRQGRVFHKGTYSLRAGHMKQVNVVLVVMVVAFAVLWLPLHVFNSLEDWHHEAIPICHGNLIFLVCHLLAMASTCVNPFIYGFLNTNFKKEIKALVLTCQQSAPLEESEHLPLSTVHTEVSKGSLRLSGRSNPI
Sequence of UniProt P30969 (whole entry, looked up): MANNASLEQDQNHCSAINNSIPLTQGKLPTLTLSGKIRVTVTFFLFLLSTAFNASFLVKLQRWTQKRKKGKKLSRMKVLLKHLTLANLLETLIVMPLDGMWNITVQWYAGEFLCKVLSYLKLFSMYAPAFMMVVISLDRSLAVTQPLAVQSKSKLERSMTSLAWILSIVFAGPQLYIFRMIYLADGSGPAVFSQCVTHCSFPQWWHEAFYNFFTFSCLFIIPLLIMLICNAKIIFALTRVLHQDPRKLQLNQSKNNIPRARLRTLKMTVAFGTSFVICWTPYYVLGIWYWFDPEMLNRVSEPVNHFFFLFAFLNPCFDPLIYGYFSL
Sequence of UniProt P16388 (whole entry, looked up): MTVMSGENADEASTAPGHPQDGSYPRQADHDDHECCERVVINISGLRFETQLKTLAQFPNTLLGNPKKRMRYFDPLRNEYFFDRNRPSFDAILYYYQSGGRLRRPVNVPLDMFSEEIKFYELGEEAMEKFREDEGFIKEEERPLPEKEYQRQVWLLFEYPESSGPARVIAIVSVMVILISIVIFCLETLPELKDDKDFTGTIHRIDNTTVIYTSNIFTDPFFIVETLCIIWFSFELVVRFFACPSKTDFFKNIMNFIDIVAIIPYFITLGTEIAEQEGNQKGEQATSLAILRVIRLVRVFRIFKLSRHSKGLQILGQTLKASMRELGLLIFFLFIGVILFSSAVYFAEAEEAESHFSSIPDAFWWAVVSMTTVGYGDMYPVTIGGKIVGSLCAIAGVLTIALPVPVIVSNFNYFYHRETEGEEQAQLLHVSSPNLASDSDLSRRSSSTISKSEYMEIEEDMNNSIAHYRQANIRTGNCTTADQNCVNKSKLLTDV
Sequence of UniProt Q9HCG7 (whole entry, looked up): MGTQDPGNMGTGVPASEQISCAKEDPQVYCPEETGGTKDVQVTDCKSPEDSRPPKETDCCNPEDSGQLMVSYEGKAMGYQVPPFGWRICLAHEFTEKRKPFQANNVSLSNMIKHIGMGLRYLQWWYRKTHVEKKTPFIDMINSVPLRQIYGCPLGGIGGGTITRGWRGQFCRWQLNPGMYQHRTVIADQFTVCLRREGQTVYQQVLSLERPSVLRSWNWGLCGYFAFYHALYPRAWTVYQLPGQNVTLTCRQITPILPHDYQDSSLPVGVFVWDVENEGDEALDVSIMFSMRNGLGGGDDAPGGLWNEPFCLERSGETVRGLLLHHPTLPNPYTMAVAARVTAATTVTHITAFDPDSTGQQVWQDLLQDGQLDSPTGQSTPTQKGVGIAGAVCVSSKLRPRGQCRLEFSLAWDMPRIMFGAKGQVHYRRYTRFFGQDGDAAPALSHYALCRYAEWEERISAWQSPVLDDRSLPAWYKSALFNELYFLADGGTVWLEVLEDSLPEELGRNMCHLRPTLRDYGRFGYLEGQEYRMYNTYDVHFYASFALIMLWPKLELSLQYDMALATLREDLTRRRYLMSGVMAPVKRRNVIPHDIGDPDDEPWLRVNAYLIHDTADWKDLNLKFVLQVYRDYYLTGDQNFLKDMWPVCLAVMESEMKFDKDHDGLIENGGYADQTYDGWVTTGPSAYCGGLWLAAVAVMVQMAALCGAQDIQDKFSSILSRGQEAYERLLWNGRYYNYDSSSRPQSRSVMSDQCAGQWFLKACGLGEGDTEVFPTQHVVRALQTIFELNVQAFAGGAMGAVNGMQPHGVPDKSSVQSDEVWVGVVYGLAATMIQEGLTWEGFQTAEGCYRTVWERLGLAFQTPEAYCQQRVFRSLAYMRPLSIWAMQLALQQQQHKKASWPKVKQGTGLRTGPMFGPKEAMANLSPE
Sequence of UniProt Q99873 (whole entry, looked up): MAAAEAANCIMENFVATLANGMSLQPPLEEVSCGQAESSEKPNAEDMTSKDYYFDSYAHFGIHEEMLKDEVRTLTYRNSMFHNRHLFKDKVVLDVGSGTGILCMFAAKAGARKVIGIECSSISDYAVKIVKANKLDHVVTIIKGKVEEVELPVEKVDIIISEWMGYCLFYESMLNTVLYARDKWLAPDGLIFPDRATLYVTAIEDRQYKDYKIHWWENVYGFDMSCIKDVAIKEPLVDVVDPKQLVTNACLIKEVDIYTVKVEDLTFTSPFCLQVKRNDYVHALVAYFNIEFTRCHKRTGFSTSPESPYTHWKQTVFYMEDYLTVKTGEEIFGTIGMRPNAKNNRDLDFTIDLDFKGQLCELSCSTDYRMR
Sequence of UniProt P78417 (whole entry, looked up): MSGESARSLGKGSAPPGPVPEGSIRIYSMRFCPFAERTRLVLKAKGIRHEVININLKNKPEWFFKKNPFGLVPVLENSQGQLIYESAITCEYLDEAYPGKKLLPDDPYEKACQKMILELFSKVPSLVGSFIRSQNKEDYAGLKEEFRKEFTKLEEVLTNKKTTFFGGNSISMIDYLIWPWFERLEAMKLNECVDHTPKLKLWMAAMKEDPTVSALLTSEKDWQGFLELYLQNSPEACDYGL
Sequence of UniProt P68400 (whole entry, looked up): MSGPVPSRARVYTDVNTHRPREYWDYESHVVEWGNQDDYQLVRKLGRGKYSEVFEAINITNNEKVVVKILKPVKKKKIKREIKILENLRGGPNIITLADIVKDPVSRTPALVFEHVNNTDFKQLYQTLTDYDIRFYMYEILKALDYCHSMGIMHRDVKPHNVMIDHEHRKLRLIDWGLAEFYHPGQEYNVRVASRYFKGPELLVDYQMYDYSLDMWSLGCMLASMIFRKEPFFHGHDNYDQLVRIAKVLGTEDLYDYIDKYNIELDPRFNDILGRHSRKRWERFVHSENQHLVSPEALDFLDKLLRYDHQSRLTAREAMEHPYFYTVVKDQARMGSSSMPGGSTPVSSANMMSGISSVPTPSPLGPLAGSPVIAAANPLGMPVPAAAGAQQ

C#CCCC(=O)N[C@H]1CSCc2ccc(cc2)CSCCNC(=O)[C@H](CCC(=O)O)NC(=O)[C@H](CCC(=O)O)NC(=O)[C@H](Cc2ccccc2)NC(=O)[C@@H]2CCCN2C(=O)[C@H](CC(N)=O)NC1=O  IC50 (EH domain-containing protein 1, EH domain (Homo sapiens, UniProt Q9H4M9)): 38.9 ± 7.6 µM
CC[C@@H]1NC(=O)[C@@H]2CSSC[C@@H]3NC(=O)[C@H](CCCCN)NC(=O)[C@@H]4CSSC[C@H](NC(=O)[C@H](CC(=O)O)NC(=O)[C@H](CCCCN)NC(=O)[C@@H]5CCCN5C(=O)[C@H]([C@@H](C)O)NC(=O)[C@H](CCCNC(=N)N)NC(=O)[C@@H](NC(=O)[C@H](CO)NC(=O)[C@H](C)N)CSSC[C@H](NC(=O)[C@H](CCCCN)NC(=O)CNC(=O)[C@H](Cc5ccc(O)cc5)NC(=O)[C@@H]5CCCN5C(=O)[C@H](CSSC[C@@H](C(N)=O)NC(=O)[C@H](CCCNC(=N)N)NC(=O)[C@H](CC(N)=O)NC3=O)NC(=O)CNC(=O)[C@H]([C@@H](C)O)NC(=O)[C@H](CCC(=O)O)NC(=O)[C@H](CCCCN)NC1=O)C(=O)N[C@@H](CCSC)C(=O)N[C@@H](CC(N)=O)C(=O)N[C@@H](CCCNC(=N)N)C(=O)N[C@@H](CCCCN)C(=O)N4)C(=O)N[C@@H](C)C(=O)N[C@@H](CC(=O)O)C(=O)N1CCC[C@H]1C(=O)N2  IC50 (Potassium voltage-gated channel subfamily A member 1 (Kcna1, Mus musculus, UniProt P16388); potassium current, blocker, whole-cell patch clamp; L929 cells expressing mouse Kv1.1): > 0.1 µM
CC(=O)N[C@@H](CCCNC(=N)N)C(=O)N[C@@H](Cc1ccc(O)cc1)C(=O)N[C@@H](CCCNC(=N)N)C(=O)N[C@@H](CC(C)C)C(=O)N[C@@H](CCCNC(=N)NC(=O)NCCCCN)C(=O)N[C@@H](Cc1ccc(O)cc1)C(N)=O  IC50 (NPY4R (Homo sapiens, UniProt P50391); calcium signal, antagonist): 9.58 µM
Nc1nc2nc3nc(N)sc3cc2s1  IC50 (Genome polyprotein, 3C protease (Human hepatitis A virus genotype IB, UniProt P08617); enzyme activity, inhibitor): 0.9 ± 0.1 µM
NC[C@@H]1O[C@H](O[C@H]2[C@@H](O)[C@H](O[C@@H]3[C@@H](O)[C@H](N)C[C@H](N)[C@H]3O[C@H]3O[C@H](CN)[C@@H](O)[C@H](O)[C@H]3N)O[C@@H]2Cn2cc(CCCCCCc3cn(C[C@H]4O[C@@H](O[C@@H]5[C@@H](O)[C@H](N)C[C@H](N)[C@H]5O[C@H]5O[C@H](CN)[C@@H](O)[C@H](O)[C@H]5N)[C@H](O)[C@@H]4O[C@H]4O[C@@H](CN)[C@@H](O)[C@H](O)[C@H]4N)nn3)nn2)[C@H](N)[C@@H](O)[C@@H]1O  IC50 (HIV-1 TAR RNA; Tat peptide binding, FRET competition; pH 7.4, 25 °C): 0.059 ± 0.011 µM
COC(=O)C1CN1S(=O)(=O)c1ccc(C(F)(F)F)cc1 (stereo not drawn)  IC50 (PDIA3 (Homo sapiens, UniProt P30101); enzyme activity, inhibitor, absorbance; pH 7.6): > 200 µM
CN1C(=O)[C@H](Cc2ccccc2)N(C)C(=O)[C@@H]2[C@H]1CCN2Cc1cc(Cl)cc(Cl)c1  IC50 (KLRK1 with ULBP6; ligand binding, inhibitor, TR-FRET; HEK293 expressing NKG2D and DAP10; with: ULBP6-AF647): 13.6 µM
CC(C)C[C@H](NC(=O)[C@@H](N)CCCCN)C(=O)NCC(=O)NCC(=O)NCC(=O)N[C@@H](CCC(N)=O)C(=O)N[C@@H](Cc1ccc(O)cc1)C(=O)NCC(=O)N[C@@H](CCC(=O)O)C(=O)O  IC50 (HLA class I histocompatibility antigen, A alpha chain, allele A*31:01 (Homo sapiens, UniProt P04439); peptide binding, competitive radioligand binding; room temperature, HLA-A*3101 allele, with: radiolabelled probe peptide): 9.87 µM
CC[C@H](C)[C@H](NC(=O)[C@H](CCC(N)=O)NC(=O)[C@@H](NC(=O)[C@H](CO)NC(=O)CNC(=O)[C@H](CC(C)C)NC(=O)[C@@H](N)Cc1ccccc1)C(C)C)C(=O)N[C@@H](CCCNC(=N)N)C(=O)N[C@H](C(=O)O)C(C)C  IC50 (HLA class I histocompatibility antigen, A alpha chain, allele A*02:01 (Homo sapiens, UniProt P04439)): < 5.01 µM
CN(C)C(=O)[C@@H](NC(=O)c1cnccc1-c1ccc(C(F)(F)F)cc1)c1cc(C(F)(F)F)cc(C(F)(F)F)c1  IC50 (KLRK1 with ULBP6; ligand binding, inhibitor, TR-FRET; HEK293 expressing NKG2D and DAP10; with: ULBP6-AF647): 0.5 ± 0.3 µM
CS(=O)(=O)SCCS(=O)(=O)O  IC50 (arsenite methyltransferase (Chlamydomonas reinhardtii, UniProt K0BVM7)): 320 µM
COc1ccc2nc(C)cc(OCC(=O)Nc3cc(C)cc(C)c3)c2c1  IC50 (CYP2C19 (Homo sapiens, UniProt P33261); inhibitor): 11 µM
CC[C@@H]1C(=O)N(C)c2cnc(Nc3ccc(C(=O)NCCCC[C@H](NC(=O)[C@@H](NC(=O)[C@H](CO)NC(=O)[C@H](Cc4cncn4CCCCCCCCc4ccccc4)NC(=O)[C@H](CC(C)C)NC(=O)[C@@H]4CCCN4C(C)=O)[C@@H](C)OP(=O)(O)O)C(N)=O)cc3OC)nc2N1C1CCCC1  IC50 (PLK1 (Homo sapiens, UniProt P53350); enzyme activity, inhibitor): 0.0049 µM
CN[C@@H](C)C(=O)N[C@H](C(=O)N1C[C@@H](NC(=O)COCCOCc2cn(CCNC(=O)CN(Cc3cccs3)C(=O)[C@H](NS(=O)(=O)c3cc4ccc(O)nc4cc3Cl)c3ccccc3OC)nn2)C[C@H]1C(=O)N[C@@H]1CCCc2ccccc21)C1CCCCC1  IC50 (OGT (Homo sapiens, UniProt O15294); enzyme activity, inhibitor, fluorescence): 1.5 µM
CCCCCCCCCC1N=C(N)N=C(N)N1c1ccccc1C (racemic)  IC50 (folA (Staphylococcus aureus, UniProt P0A017); enzyme activity, inhibitor): 23 µM
CCCCn1nnc(-c2ccccc2NC(=O)[C@H](C)CS)n1  IC50 (blaNDM-1 (Klebsiella pneumoniae, UniProt C7C422); enzyme activity, inhibitor, fluorescence; with preincubation): 2.04 µM
N#Cc1cn([C@@H]2O[C@H](CSCC[C@H](N)C(=O)O)[C@@H](O)[C@H]2O)c2ncnc(N)c12  IC50 (PRMT1 (Homo sapiens, UniProt Q99873); enzyme activity, inhibitor, radiometric): 3 µM
CCC(=O)C(NC(=O)c1ccccc1-c1ccc(C(F)(F)F)cc1)c1cccc(C(F)(F)F)c1 (stereo not drawn)  IC50 (KLRK1 with ULBP6; ligand binding, inhibitor, TR-FRET; HEK293 expressing NKG2D and DAP10; with: ULBP6-AF647): > 20 µM
OC[C@@H]1[C@@H](O)[C@H](O)[C@@H](O)[C@H]2N[C@@H]12  IC50 (Beta-glucosidase (GBA2, Homo sapiens, UniProt Q9HCG7); enzyme activity, inhibitor; pH 5.8, with preincubation): > 100 µM
CC(=O)Nc1ccc2ccn(-c3cc(NS(=O)(=O)c4ccccc4)n4ncc(C#N)c4n3)c2c1  IC50 (CSNK2A1 (Homo sapiens, UniProt P68400); target engagement in cells, BRET): 3.98 µM
NCCCC[C@@H](NC(=O)[C@H](Cc1c[nH]cn1)NC(=O)[C@H](CO)NC(=O)[C@H](Cc1c[nH]c2ccccc12)NC(=O)[C@H](Cc1c[nH]cn1)NC(=O)[C@@H]1CCC(=O)N1)C(=O)N[C@@H](Cc1c[nH]c2ccccc12)C(=O)N[C@@H](Cc1ccc(O)cc1)C(=O)N1CCC[C@H]1C(=O)NCC(N)=O  IC50 (Gonadotropin-releasing hormone receptor (Rattus norvegicus, UniProt P30969); ligand displacement in cells, radioligand): 0.0008 µM
COc1ccc(CN(CCC(c2ccccc2)c2ccc(OC(C)C)cc2)C(=O)CCl)cc1OC (stereo not drawn)  IC50 (GSTO1 (Homo sapiens, UniProt P78417); enzyme activity, inhibitor): < 0.4 µM
CC(C)C[C@H](NC(=O)[C@H](CCCNC(=N)N)NC(=O)[C@H](CCC(=O)O)NC(=O)[C@H](CCCCN)NC(=O)[C@H](CCCNC(=N)N)NC(=O)[C@H](CCCCN)NC(=O)[C@H](CCC(=O)O)NC(=O)[C@H](CC(C)C)NC(=O)[C@H](Cc1ccccc1)NC(=O)[C@H](CCCNC(=N)N)NC(=O)[C@H](C)NC(=O)[C@H](CC(C)C)NC(=O)[C@H](CO)NC(=O)[C@]1(C)CCCC=CCCC[C@](C)(NC(=O)[C@@H]2CCCN2C(=O)[C@@H](NC(=O)[C@H](CO)NC(=O)c2ccc3c(c2)C(=O)OC32c3ccc(N(C)C)cc3Oc3cc(N(C)C)ccc32)C(C)C)C(=O)N[C@@H](C)C(=O)N[C@@H](CCCNC(=N)N)C(=O)N[C@@H](CCCCN)C(=O)N1)C(=O)O  IC50 (Transcription factor MYC3 (MYC3, Arabidopsis thaliana, UniProt Q9FIP9); JAZ9 peptide binding, inhibitor, AlphaScreen; pH 8.0, 25 °C, with: 50 nM biotin-JAZ9 peptide): 6 ± 1.6 µM
CC(=O)[O][Cu+].CN1CCN2CCN(C)CCN(CC1)CC2  IC50 (CXCR4 (Homo sapiens, UniProt P61073); ligand displacement, flow cytometry): 0.0168 µM
O=C(O)c1nccn1Cc1ccccc1  IC50 (Metallo-beta-lactamase type 2 (Serratia marcescens, UniProt P52699); inhibitor; 10 min preincubation, with: FC5 fluorogenic substrate): 15.2 µM
CC[N+](CC)(CC)CC  IC50 (Potassium channel protein kcv (A250R, Paramecium bursaria Chlorella virus 1, UniProt Q84568, L70E)): 79000 ± 11000 µM
CN(C(=O)c1ccn2ncc(-c3ccc(C(F)(F)F)cc3)c2c1)c1ccc(C#N)cn1  IC50 (Phosphatidylinositol 4-kinase (Cryptosporidium parvum, UniProt Q5CVD3); enzyme activity; with: ATP 3 µM): 0.212 µM

For quick reference, copied from above:
CC[C@@H]1NC(=O)[C@@H]2CSSC[C@@H]3NC(=O)[C@H](CCCCN)NC(=O)[C@@H]4CSSC[C@H](NC(=O)[C@H](CC(=O)O)NC(=O)[C@H](CCCCN)NC(=O)[C@@H]5CCCN5C(=O)[C@H]([C@@H](C)O)NC(=O)[C@H](CCCNC(=N)N)NC(=O)[C@@H](NC(=O)[C@H](CO)NC(=O)[C@H](C)N)CSSC[C@H](NC(=O)[C@H](CCCCN)NC(=O)CNC(=O)[C@H](Cc5ccc(O)cc5)NC(=O)[C@@H]5CCCN5C(=O)[C@H](CSSC[C@@H](C(N)=O)NC(=O)[C@H](CCCNC(=N)N)NC(=O)[C@H](CC(N)=O)NC3=O)NC(=O)CNC(=O)[C@H]([C@@H](C)O)NC(=O)[C@H](CCC(=O)O)NC(=O)[C@H](CCCCN)NC1=O)C(=O)N[C@@H](CCSC)C(=O)N[C@@H](CC(N)=O)C(=O)N[C@@H](CCCNC(=N)N)C(=O)N[C@@H](CCCCN)C(=O)N4)C(=O)N[C@@H](C)C(=O)N[C@@H](CC(=O)O)C(=O)N1CCC[C@H]1C(=O)N2  IC50 (Potassium voltage-gated channel subfamily A member 1 (Kcna1, Mus musculus, UniProt P16388); potassium current, blocker, whole-cell patch clamp; L929 cells expressing mouse Kv1.1): > 0.1 µM
CC(=O)N[C@@H](CCCNC(=N)N)C(=O)N[C@@H](Cc1ccc(O)cc1)C(=O)N[C@@H](CCCNC(=N)N)C(=O)N[C@@H](CC(C)C)C(=O)N[C@@H](CCCNC(=N)NC(=O)NCCCCN)C(=O)N[C@@H](Cc1ccc(O)cc1)C(N)=O  IC50 (NPY4R (Homo sapiens, UniProt P50391); calcium signal, antagonist): 9.58 µM
